Assay results pooled from the literature.
Every numbered part comes from another study and shows a few of its results, in no order. Substitutions count along the parent as printed.

Study 1
Target: RNA binding protein fox-1 homolog 2, RRM domain, GST-SBP tag (RBFOX2, Homo sapiens, UniProt O43251-10, residues 100-194)
Technique: RNA Bind-n-Seq
Molecule type: RNA
Matrix: in vitro
Concentration: 365 nM
Notes: natural RNA segment, single round, ends assumed
Reference: no-protein control
Direction: higher = stronger binding
Construct (chain): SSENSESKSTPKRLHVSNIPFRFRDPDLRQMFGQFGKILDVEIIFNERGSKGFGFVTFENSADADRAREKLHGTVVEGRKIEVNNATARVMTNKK
| Sequence | RBNS enrichment (R) |
| --- | --- |
| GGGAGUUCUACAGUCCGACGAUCAAGCCUUUAUGCCUAUGAGAACUCCAUAGCUGGGUCUCACCACUAAUAAACAGACCUGCACCUCUGGAAGGAUCCACUGUGUGUCUGGUACCACACUGGGCCUUUCAAAGUGGAAUUCUCGGGUGCCAA | 0.368 |
| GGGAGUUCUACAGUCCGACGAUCAGAGAGCUGAAGCCAUCUGGUUCUUAGAUUCCUCUCCCAGUCCUCUUUCCCAUUGUUCUGUUGCUCCACCUUAUUGUCUCAAGGCCGUAAUCUCAUCAGGUUGGGACAUUUGGAAUUCUCGGGUGCCAA | 0.446 |
| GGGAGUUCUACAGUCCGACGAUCGAGAAGCCCUAAUUAACAACGUUGGUGACUUGUGUAAAAUGGAUUUGUAACCUACAAGUCACCAAACGAUGACUAGAAGCUGCAGUGCUGUACAGGAAUGUGAAGGGAGGUGGAAUUCUCGGGUGCCAA | 1.14 |
| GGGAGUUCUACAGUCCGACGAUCACAGUCAUUGUAAUUGGGUAGUUUUGUUAAUAAAUAUUUUUAAAUCUUGCUUUUCAGAAAUUACCGAAUGUGUAUAAACAAAUAAAGAAAAAUAAUUUAGCUGUGUUUUAUGGAAUUCUCGGGUGCCAA | 1.01 |
| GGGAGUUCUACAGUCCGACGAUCAAGCAGCUACUUACCCCUCAGAGAAUAAAGUAUUAUGCAUUCUUGUCAAUUUGAAAACUACAUCUACUGUAUUAUUGCUGAAUAUUUUGUUAAUACUAAGGGACAAUUAUUGGAAUUCUCGGGUGCCAA | 0.458 |
| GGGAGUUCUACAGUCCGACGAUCCCUGCUUCAGCUACUGCCUCCUGUAUGCAUGAGCCGGAUGCUGGGCAGGAUCCCUGCCUACGCCCGGGCCCGAUUUGCGCUUUGCCGGACUGGAUGGAGUGGAGGAGGCCUGGAAUUCUCGGGUGCCAA | 5.82 |
| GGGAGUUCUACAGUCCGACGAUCCUUGCAUAAAGAAGGUGUGGCCUCUGAGCUCUCAAGGGCCCCAGUUGCCACCAACCACCACCACAGGUGGCCUUAUGGCUCUUCCUGGAUGUUCGAUUCAUGUAAGUGACUGGAAUUCUCGGGUGCCAA | 0.253 |
| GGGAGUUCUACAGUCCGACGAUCAGUCCAGCCAUUUUCACCUCCCCUGGUCCAUGCUCAGGAAGUCUGGUCACCCUGGCAAACUGCACCUGACAUUGAGGUCCCUUUUCACCAAAGAUGCACAAGGUGUCCAUUGGAAUUCUCGGGUGCCAA | 0.292 |
| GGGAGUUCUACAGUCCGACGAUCAUAAUGUAUGUACCUUUUCCAGACUGAAGUUCAAAGAAUGAUUAGGUUCAAUCUUUCAGUGGCAGGCCAGCUAAACUUUCUAUAGUUUAAUGAUUAGCUGUGGUUAUGAUUGGAAUUCUCGGGUGCCAA | 0.503 |
| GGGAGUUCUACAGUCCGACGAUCGUUUUUUCUUUAAGGCUUUUUUGCCUUGUGCCACUGUUGCUCCUUGGUUUCCCUUGCGUAAUUGAUAAGCCCAGUUAUUCAGUAAUGUUUACAAAUUAAUUGACUUUGAUUGGAAUUCUCGGGUGCCAA | 0.546 |

Study 2
Target: CCNA1, cyclin fold, Cln2 fusion (human)
Technique: yeast growth competition, sequencing
Matrix: yeast
Notes: weak parent motif
Reference: not given
Direction: higher = stronger binding
Starting sequence: ORC1 docking peptide (human); PRARKRLELGNLG; partner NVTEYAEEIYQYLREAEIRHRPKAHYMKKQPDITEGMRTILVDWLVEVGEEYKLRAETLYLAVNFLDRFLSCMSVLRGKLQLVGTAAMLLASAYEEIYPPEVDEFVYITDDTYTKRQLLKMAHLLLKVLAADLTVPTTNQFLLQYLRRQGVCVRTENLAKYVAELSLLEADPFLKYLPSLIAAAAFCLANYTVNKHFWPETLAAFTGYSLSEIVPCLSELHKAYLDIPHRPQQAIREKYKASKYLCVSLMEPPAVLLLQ
| Variant | normalised enrichment score |
| --- | --- |
| PRARKILELGNLG [R6I] | 0.602 |
| PMARKRLELGNLG [R2M] | 0.496 |
| PRARKRLELGNQG [L12Q] | 0.379 |
| PRARGRLELGNLG [K5G] | 0.245 |
| PRHRKRLELGNLG [A3H] | 0.327 |
| PRARKRLELGNLI [G13I] | -0.204 |
| CRARKRLELGNLG [P1C] | 0.699 |
| PRARKRLELGNLV [G13V] | 0.426 |
| PRARKSLELGNLG [R6S] | 0.375 |
| PRARKRQELGNLG [L7Q] | 0.423 |
| PRARKRLDLGNLG [E8D] | 0.681 |
| PRARKFLELGNLG [R6F] | 0.385 |
| PRARMRLELGNLG [K5M] | 0.346 |

Study 3
Target: MAFK, bZIP domain (human)
Technique: DHFR protein complementation
Matrix: yeast
Notes: single substitutions, most at no-binding floor
Reference: wild-type JUN-FOS pair
Direction: higher = stronger binding
Starting sequence: JUN, bZIP domain (human); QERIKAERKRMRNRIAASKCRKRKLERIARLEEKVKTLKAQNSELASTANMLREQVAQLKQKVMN; partner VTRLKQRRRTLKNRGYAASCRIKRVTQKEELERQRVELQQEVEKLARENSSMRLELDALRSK
| Variant | binding fitness [natural log] |
| --- | --- |
| K34R | -1.45 |
| A29S | -1.53 |
| T48G | -1.5 |
| Q55M | -1.53 |
| E44V | -1.48 |
| Q41G | -1.48 |
| T37G | -1.42 |
| L31V | -1.44 |
| S43M | -1.47 |
| Q58P | -1.4 |

Mixed results
| Molecule | target | test | test system | conditions | how to read | endpoint | result |
| --- | --- | --- | --- | --- | --- | --- | --- |
| PhoQ, residues 284 288 289 292 302 303 ALSMDL | PhoP, residues 12 14 15 18 19 NQGLL (Escherichia coli, UniProt P23836) | Sort-seq, refers to: YFP reporter | E. coli | PhoQ-PhoP variant library, added: 10 µM Mg2+ | reference: high Mg2+ state, higher = stronger signaling | fold induction | 12.1 |

A few entries again (study 1):
| Sequence | RBNS enrichment (R) |
| --- | --- |
| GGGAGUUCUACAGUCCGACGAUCGAGAAGCCCUAAUUAACAACGUUGGUGACUUGUGUAAAAUGGAUUUGUAACCUACAAGUCACCAAACGAUGACUAGAAGCUGCAGUGCUGUACAGGAAUGUGAAGGGAGGUGGAAUUCUCGGGUGCCAA | 1.14 |
| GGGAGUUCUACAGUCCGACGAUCAUAAUGUAUGUACCUUUUCCAGACUGAAGUUCAAAGAAUGAUUAGGUUCAAUCUUUCAGUGGCAGGCCAGCUAAACUUUCUAUAGUUUAAUGAUUAGCUGUGGUUAUGAUUGGAAUUCUCGGGUGCCAA | 0.503 |
| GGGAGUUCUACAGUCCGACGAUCAAGCCUUUAUGCCUAUGAGAACUCCAUAGCUGGGUCUCACCACUAAUAAACAGACCUGCACCUCUGGAAGGAUCCACUGUGUGUCUGGUACCACACUGGGCCUUUCAAAGUGGAAUUCUCGGGUGCCAA | 0.368 |
| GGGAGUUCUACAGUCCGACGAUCAGUCCAGCCAUUUUCACCUCCCCUGGUCCAUGCUCAGGAAGUCUGGUCACCCUGGCAAACUGCACCUGACAUUGAGGUCCCUUUUCACCAAAGAUGCACAAGGUGUCCAUUGGAAUUCUCGGGUGCCAA | 0.292 |
